Assay results collected from several papers.
Numbered parts are unrelated; each lists some results of a single study. Changes are numbered by the printed parent chain.

Block 1 — technique: RNA Bind-n-Seq; molecule type: RNA; matrix: in vitro; tested at: 200 nM; setting: whole 134-nt RNA, ends assumed; added: 150 mM LiCl; relative to: input library; direction: higher = stronger binding; all molecules: 7-deaza-guanosine replaces G
Target: Ras GTPase-activating protein-binding protein 1, full length (G3BP1, Homo sapiens, UniProt Q13283)
Chain of UniProt Q13283 (whole entry, looked up): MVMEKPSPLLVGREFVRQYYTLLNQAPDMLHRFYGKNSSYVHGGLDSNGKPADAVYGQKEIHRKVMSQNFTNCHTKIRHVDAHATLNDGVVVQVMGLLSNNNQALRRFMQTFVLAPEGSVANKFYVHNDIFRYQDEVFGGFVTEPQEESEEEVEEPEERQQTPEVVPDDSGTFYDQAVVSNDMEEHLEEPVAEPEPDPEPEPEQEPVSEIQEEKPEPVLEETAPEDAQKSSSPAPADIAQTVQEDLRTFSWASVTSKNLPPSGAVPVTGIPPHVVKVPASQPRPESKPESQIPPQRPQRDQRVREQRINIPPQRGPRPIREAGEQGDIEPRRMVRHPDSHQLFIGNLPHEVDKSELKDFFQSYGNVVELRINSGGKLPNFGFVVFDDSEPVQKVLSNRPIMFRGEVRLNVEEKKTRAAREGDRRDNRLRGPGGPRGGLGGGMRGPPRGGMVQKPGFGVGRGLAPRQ
Sequence	log2 enrichment
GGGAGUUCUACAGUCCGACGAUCUCAAGUCCUGUGCUACACAUCGUAUGUACCGAAUCGGGGCGGGGCGGGGCGGGGAAAGUAUUAUGUUACGCCGUUCGGAUCUGCACUUCCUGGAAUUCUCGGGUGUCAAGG	0.0919
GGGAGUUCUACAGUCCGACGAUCAAGUCCUGUGCUACACAUCGUAUGUACCGAAUCGGGUUUUGGUUUUGGGUUUUGGGGAAAGUAUUAUGUUACGCCGUUCGGAUCUGCACUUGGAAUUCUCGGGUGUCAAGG	0.332
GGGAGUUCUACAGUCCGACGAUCUAGUCCAGCAUCAAGAUUCGCCGGCCUGGAUACAAAUCAGCGACUUACAGCUUUAGCUGAAGACAGACCGUUAUUUGAUGGACCUAGUAGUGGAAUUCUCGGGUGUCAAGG	-2.35
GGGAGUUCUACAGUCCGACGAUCCCUGUGCUACACAUCGUAUGUACCGAAUCGGGCCCCCCGGGCCCCCCGGGGCCCCCCGGGGAAAGUAUUAUGUUACGCCGUUCGGAUCUGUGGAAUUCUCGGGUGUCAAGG	-1.32
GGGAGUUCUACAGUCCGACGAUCCACAGACAACACGCACCCACACAGACACAGAGGGAAGGGGUUGGGAUGGGGACAGGGUGCACACCAGGGCGGGGUAGGACCCCAGCCCCUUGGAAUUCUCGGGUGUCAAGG	-0.484
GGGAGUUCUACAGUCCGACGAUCUGUGCUACACAUCGUAUGUACCGAAUCGGGCCCCCCCGGGCCCCCCCGGGGCCCCCCCGGGGAAAGUAUUAUGUUACGCCGUUCGGAUCUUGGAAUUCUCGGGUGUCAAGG	-0.213
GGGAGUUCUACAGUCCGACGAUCUGGCCCUGGUGGCAUGCGGGGAGGAAGAGGUGGCCUCAUGGAUCGUGGUGGUCCCGGUGGAAUGUUGAGAGGUGGCCGUGGUGGAGACAGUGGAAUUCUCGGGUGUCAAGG	0.182
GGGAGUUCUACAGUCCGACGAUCUGGGAGGUGGAUUUUGUUUAUUUUUUUAGCUCAUUUCCAGGGGUGGGAAUUUUUUUUUAAUAUGUGUCUUGAAUAAAGUUGUUUUUGAAAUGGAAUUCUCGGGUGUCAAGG	-0.0735
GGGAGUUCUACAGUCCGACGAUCCCUGUGCUACACAUCGUAUGUACCGAAUCAAAUUUUUUUAAACCCCCCCAAACCCCCAAAAAAGUAUUAUGUUACGCCGUUCGGAUCUGCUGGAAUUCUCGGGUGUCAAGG	0.633
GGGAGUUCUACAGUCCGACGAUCUGAAUCCUUCCUUGAUGAUGAAGAGGUAUGUCAACAAGGGUAAUAAUUUGUUUUCUUCUGAUUACUCUCAUAUUUUUAUUAUCUUUUAUUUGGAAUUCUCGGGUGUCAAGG	-1.44
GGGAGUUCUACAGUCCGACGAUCGCAGGAAGUAAAAGCAAAUGGAAAUGCUUCGGAUAGUGGCAGGGGUGGGGGUUGCUAAGGAAAGGGUGGGAUGGGAGUGGGUAAAGAGUUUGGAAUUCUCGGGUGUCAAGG	0.2

Block 2 — technique: protein binding microarray; molecule type: double-stranded DNA, one strand shown; matrix: in vitro; tested at: not given; relative to: not given; direction: higher = stronger binding
Target: Histone acetyltransferase KAT6A, both winged helices, GST fusion (KAT6A, Homo sapiens, UniProt Q92794, residues 1-181)
Setting: 8-mer, flanks averaged, mean of 2 arrays, mostly near background
Residues (chain): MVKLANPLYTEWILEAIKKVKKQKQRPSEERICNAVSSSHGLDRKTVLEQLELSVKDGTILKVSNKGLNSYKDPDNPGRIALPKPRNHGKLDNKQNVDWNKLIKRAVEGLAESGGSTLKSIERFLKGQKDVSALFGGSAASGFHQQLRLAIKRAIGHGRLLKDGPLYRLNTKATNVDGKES
Sequence	E-score
GGATCTGA	-0.0761
AATTACCG	0.207
AATGGGGG	-0.25
GTAGCAGA	-0.146
AGGGATTC	-0.126
ATCGTCTG	0.0895
AGATGTGC	-0.0604
CATTGTAC	0.0213
ATATTTCC	0.00961
TCGGCACA	0.0966
CCTGCCTA	-0.208
ACTTTAAG	-0.0186
ACCGCATA	0.106
GAGAAAAC	-0.075
CAGCTCCA	-0.306
AAGCTGTA	-0.0315
CATCACGG	0.125
AGTAGTGA	-0.105
CGTGGAAC	0.182
ACGAAGAG	-0.0627
AAAATAGC	-0.0085
CTTAAATC	-0.149
CAGATCTC	-0.137
CTAGTCTA	-0.226
ACACCTAC	-0.107

Block 3 — target: CCND3, cyclin fold, Cln2 fusion (human); technique: yeast growth competition, sequencing; matrix: yeast; setting: weak parent motif; relative to: not given; direction: higher = stronger binding
Starting sequence: E2F1 docking peptide (human); PPVKRRLDLETDH
Change	normalised enrichment score
PPVKRRLDLEPDH [T11P]	0.188
PPVKRRWDLETDH [L7W]	0.155
PPVKRTLDLETDH [R6T]	0.209
PPVKRRLELETDH [D8E]	0.0299
PPVKVRLDLETDH [R5V]	-0.0176
PFVKRRLDLETDH [P2F]	0.197
PPVKRELDLETDH [R6E]	0.17
WPVKRRLDLETDH [P1W]	0.242
PPTKRRLDLETDH [V3T]	0.0837
PPVKRRLRLETDH [D8R]	0.126
PPVKRRLWLETDH [D8W]	0.131
TPVKRRLDLETDH [P1T]	0.0956
PLVKRRLDLETDH [P2L]	0.0795
PMVKRRLDLETDH [P2M]	0.0991
PPVKRRLTLETDH [D8T]	0.203
PPVKRRLDLWTDH [E10W]	0.152
PPVKRRLDLEYDH [T11Y]	0.219
LPVKRRLDLETDH [P1L]	0.167
PPVWRRLDLETDH [K4W]	0.135
PPVKRRQDLETDH [L7Q]	0.0844
PPVHRRLDLETDH [K4H]	0.17
PPVKRRLDLETDA [H13A]	0.0423
PPVMRRLDLETDH [K4M]	0.146
PPVKRRVDLETDH [L7V]	0.0287
PPVKRRDDLETDH [L7D]	0.144

Block 4 — technique: RNA Bind-n-Seq; molecule type: RNA; matrix: in vitro; tested at: 365 nM; relative to: no-protein control; direction: higher = stronger binding
Target: RNA binding protein fox-1 homolog 2, RRM domain, GST-SBP tag (RBFOX2, Homo sapiens, UniProt O43251-10, residues 100-194)
Setting: natural RNA segment, single round, ends assumed
Target sequence (chain): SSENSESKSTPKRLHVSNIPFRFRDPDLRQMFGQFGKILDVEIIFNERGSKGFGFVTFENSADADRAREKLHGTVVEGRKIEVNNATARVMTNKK
Sequence	RBNS enrichment (R)
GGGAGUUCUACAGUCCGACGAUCCAGCCAGUCACUAAGAAAGACAGUCUGCCUGGCAGCUCCUGGUGAACCUGCCUUUCUGUGAAUGUGUCUGACUUAGAAUCACACUUUAUAAAUUAAUCCAGGUUGUGUUAUGGAAUUCUCGGGUGCCAA	0.536
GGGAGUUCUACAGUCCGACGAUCGCCAGUAAUUAACAUGGCUGGGCAGAAGCAGAAGCCGACACUGUGACGACGCUCCGUGUUCUUUAUUAAAAACGAUGUCCCGCACUUAUUACUAGUGGAAUCAACUGGAAUGGAAUUCUCGGGUGCCAA	0.335
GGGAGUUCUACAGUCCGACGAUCUCUCCAAAUCAAACCACAGUAUAUGUUGUAACAAUAUCUAUGACCACUGUUAGCCCAUUAUAUUCAUUCCAAUUAGAAGAAAUGUGAAUACUAUAUUCCGUGUUUUGAGUUGGAAUUCUCGGGUGCCAA	0.542
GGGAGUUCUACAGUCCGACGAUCAUUCUUCUCUGCGCUUUACUGCUUUGCCUGAGGAAUCGAUUAUAUUUGACAGAGAAAUAUUGUUUAGACUGCAUUAUUUUUGUUCGACUCCAAAAGAUUUGCCAAAUAACUGGAAUUCUCGGGUGCCAA	0.952
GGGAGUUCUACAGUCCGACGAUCUCAGAAUAAUCCUCACAGUUCUGGAAGAUUGAAAAACCAAGUUCACAUGACAAGAACAAACCCGGUUUUAAGGGUUGAAUGUAGGGGGAUACCAUUCUGUCUUUUAGACUUGGAAUUCUCGGGUGCCAA	0.656
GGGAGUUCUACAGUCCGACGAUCCCAGACAGAAGCUCAGGGUGUGUCUAGGAAGCAUUAGUUUUAAAAAGCUGAGUGAUUUUUUUUUUUUCAUCAAUCCACACAUUUUUGUCCAUUGCUGUAAGAGAAGAAAAUGGAAUUCUCGGGUGCCAA	0.655
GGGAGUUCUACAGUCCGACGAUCGCGUGAGUCCGCGGCUGGCCCUUGGAGGUGACCAUCCAGGCAGGCCUGGCUCAGACUGGAAGGGCUGGGGACCGAGGGCUCCCCUGCCUCUGUUCUCCUUUCUGACCCACUGGAAUUCUCGGGUGCCAA	0.395
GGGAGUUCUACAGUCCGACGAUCAGUGGCUUUUUGGCUCAGCAUCCAGAAACACCAAACCAGGCUGGCUAAACAAGUGGCCGCGUGUAAAAACAGACAGCUCUGAGUCAAAUCUGGGCCCUUCCACAAGGGUCUGGAAUUCUCGGGUGCCAA	0.334
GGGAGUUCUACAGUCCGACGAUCGCACUUAUCUUUUGAGUUUGUACUGUGGUCCAUGUACUUACUAAUAUGUUGCUUUGUAAUUAUUUUCUAGCACUCUGUGUUACAGUUUCAUAUUUGUAUUUAUUUCCAAAUGGAAUUCUCGGGUGCCAA	1.8
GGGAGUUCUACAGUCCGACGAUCCUCUUCAGUGGGAGAAAACACUUGUAAGUUGCUAAACGAGUCAAUCCCCUCAUUCAGGAAAACUGACAGAGGAGGGCGUGACUCACCCAAGCAUAUAUAACUAGCUAGAAUGGAAUUCUCGGGUGCCAA	0.297
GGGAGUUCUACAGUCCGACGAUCUACACGGCUCUCUAAAGCCCUACAGAGGGUUCAUGUGUUUAGACCUGAGAAAUCAGGACAUGGAAAUCAGAGCAUAUACAUAAGGAACUUAAUUUUAAUGUAAUCAUGUCUGGAAUUCUCGGGUGCCAA	0.651
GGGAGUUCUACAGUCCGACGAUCAUUCCUAAUAUUUUGUUCUGCAAAUUAAUGUAUAAUUUGAGGUGAAAUUCAGUUAUAAAGUCAAGGACGAAUUUGCACAGUGAUAUAUUUCUAUGUGUAUGCAAGUACAAUGGAAUUCUCGGGUGCCAA	0.363

A few entries again (block 3):
Change	normalised enrichment score
PPVKRELDLETDH [R6E]	0.17
PPTKRRLDLETDH [V3T]	0.0837
TPVKRRLDLETDH [P1T]	0.0956
PPVKRRDDLETDH [L7D]	0.144
PPVKRRLRLETDH [D8R]	0.126
LPVKRRLDLETDH [P1L]	0.167
PPVKRRLWLETDH [D8W]	0.131
PPVHRRLDLETDH [K4H]	0.17
PPVKRTLDLETDH [R6T]	0.209
PPVMRRLDLETDH [K4M]	0.146
PPVKRRLDLEPDH [T11P]	0.188
PPVKRRLDLEYDH [T11Y]	0.219
